{"data": "Experimental data of several laboratories", "note": "A part holds a random share of what one study measured.", "chain of UniProt Q5XXA6 (whole entry, unmodified, looked up)": "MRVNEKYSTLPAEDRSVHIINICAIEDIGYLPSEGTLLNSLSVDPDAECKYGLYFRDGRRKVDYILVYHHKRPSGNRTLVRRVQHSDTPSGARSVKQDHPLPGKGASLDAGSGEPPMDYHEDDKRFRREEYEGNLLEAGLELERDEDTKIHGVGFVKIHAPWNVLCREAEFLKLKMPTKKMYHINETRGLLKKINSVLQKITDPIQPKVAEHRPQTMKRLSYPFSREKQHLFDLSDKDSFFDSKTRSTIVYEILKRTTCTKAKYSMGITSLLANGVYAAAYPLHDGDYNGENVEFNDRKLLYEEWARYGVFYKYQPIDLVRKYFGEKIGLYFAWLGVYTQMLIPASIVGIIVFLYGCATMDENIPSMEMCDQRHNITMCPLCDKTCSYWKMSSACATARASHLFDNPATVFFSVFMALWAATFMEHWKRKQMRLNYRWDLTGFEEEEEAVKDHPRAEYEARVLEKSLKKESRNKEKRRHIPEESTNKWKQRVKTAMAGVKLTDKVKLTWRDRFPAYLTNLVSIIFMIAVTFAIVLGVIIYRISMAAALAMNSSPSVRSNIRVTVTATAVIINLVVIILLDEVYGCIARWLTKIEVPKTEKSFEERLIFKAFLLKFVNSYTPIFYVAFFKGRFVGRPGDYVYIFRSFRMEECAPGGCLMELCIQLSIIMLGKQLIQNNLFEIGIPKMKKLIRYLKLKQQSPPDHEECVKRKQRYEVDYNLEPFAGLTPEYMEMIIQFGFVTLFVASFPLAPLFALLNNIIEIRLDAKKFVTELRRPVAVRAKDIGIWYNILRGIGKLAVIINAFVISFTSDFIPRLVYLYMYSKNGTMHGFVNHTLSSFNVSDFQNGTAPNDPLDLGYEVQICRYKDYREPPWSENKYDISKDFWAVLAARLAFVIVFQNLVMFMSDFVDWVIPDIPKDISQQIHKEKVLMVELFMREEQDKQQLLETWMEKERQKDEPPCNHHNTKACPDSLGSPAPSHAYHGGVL"}
{"data": "Study 1", "target": "Ribosomal protein S6 kinase alpha-1 (RPS6KA1, Homo sapiens, UniProt Q15418)", "observed": "enzyme activity", "mode": "inhibitor", "tested at": "0.5 µM", "relative to": "control", "chain of UniProt Q15418 (whole entry, looked up)": "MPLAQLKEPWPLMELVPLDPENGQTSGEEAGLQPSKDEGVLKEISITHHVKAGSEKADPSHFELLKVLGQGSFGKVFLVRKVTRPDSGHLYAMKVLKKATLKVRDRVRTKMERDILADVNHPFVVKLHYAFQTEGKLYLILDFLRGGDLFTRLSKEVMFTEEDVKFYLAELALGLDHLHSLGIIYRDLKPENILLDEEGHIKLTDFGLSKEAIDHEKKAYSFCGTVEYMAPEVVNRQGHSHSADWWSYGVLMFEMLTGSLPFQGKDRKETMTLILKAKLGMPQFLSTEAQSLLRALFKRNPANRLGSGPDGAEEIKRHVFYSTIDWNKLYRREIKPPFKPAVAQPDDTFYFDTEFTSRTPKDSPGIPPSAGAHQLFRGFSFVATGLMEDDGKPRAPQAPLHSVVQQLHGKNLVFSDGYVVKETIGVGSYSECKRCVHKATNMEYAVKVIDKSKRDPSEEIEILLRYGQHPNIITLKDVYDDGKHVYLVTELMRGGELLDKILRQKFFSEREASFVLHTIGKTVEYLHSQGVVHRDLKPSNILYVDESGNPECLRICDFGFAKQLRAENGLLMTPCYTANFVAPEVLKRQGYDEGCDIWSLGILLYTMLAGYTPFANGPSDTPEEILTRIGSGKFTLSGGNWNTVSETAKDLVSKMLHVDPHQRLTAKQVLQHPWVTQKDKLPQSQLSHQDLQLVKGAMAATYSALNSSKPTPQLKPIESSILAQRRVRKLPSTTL"}
{"Compound": "O=C1Cc2c([nH]c3ccc([N+](=O)[O-])cc23)-c2ccccc2N1", "remaining activity [%]": 89.7}
{"Compound": "CC(C)(C)n1nc(Cc2cccc3ccccc23)c2c(N)ncnc21", "remaining activity [%]": 87.8}
{"Compound": "Nc1nccc(-c2c(-c3ccc(F)cc3)ncn2C2CCNCC2)n1", "remaining activity [%]": 96.7}
{"Compound": "Oc1ccc(Nc2nc(-c3ccc(Cl)cc3)cs2)cc1", "remaining activity [%]": 97.7}
{"Compound": "CC[n+]1c(/C=C/N(C)c2ccccc2)n(-c2ccccc2)c2ccc(-c3nc4ccccc4s3)cc21", "remaining activity [%]": 104}
{"Compound": "Nc1ncnc2c1cnn2-c1ccccc1", "remaining activity [%]": 79.5}
{"Compound": "NC(=O)c1ccc(N(C(N)=O)c2c(F)cccc2F)nc1-c1ccc(F)cc1F", "remaining activity [%]": 109}
{"Compound": "Fc1ccc(-c2nc3n(c2-c2ccncc2)CCS3)cc1", "remaining activity [%]": 100}
{"Compound": "CSc1nc(-c2ccnc(N[C@@H](C)c3ccccc3)c2)c(-c2ccc(F)cc2)[nH]1 (racemic)", "remaining activity [%]": 99.4}
{"Compound": "COc1cc(Nc2c(C#N)cnc3cc(OCCCN4CCN(C)CC4)c(OC)cc23)c(Cl)cc1Cl", "remaining activity [%]": 80.4}
{"Compound": "CC(=O)c1ccc(N2CCOCC2)cc1O", "remaining activity [%]": 92.4}
{"Compound": "N#CC(=C(N)Sc1ccc(N)cc1)c1ccccc1C(F)(F)F", "remaining activity [%]": 88.7}
{"Compound": "O=C1NC(=O)C(c2c[nH]c3ccccc23)=C1c1c[nH]c2ccccc12", "remaining activity [%]": 57.6}
{"Compound": "CC#CC(=O)Nc1cc2c(Nc3ccc(F)c(Cl)c3)ncnc2cn1", "remaining activity [%]": 95.1}
{"Compound": "Cc1ccc(NC2=CC(=O)c3sc(C)nc3C2=O)cc1", "remaining activity [%]": 102}
{"Compound": "COc1ccc(S(=O)(=O)N(CCO)c2ccccc2CN(C)CC=Cc2ccc(Cl)cc2)cc1", "remaining activity [%]": 108}
{"Compound": "O=S(=O)(NCCNC/C=C/c1ccc(Br)cc1)c1cccc2cnccc12", "remaining activity [%]": 68.4}
{"Compound": "Cc1cncc2cccc(S(=O)(=O)N3CCCN(C(=O)CN)C[C@@H]3C)c12", "remaining activity [%]": 90.4}
{"Compound": "CCCC(=O)Oc1ccc2[nH]c(C(=O)c3cc4ccccc4[nH]3)cc2c1", "remaining activity [%]": 91.3}
{"Compound": "Cc1cc(Nc2nc(-c3ccccc3)nc3ccccc23)n[nH]1", "remaining activity [%]": 58}
{"Compound": "CCc1[nH]c(-c2ccc(OC)cc2)nc1-c1ccncc1", "remaining activity [%]": 106}
{"data": "Study 2", "Compound": "C=CCc1ccc(O)c(-c2cc(CC=C)ccc2O)c1", "observed": "chloride current", "method": "whole-cell voltage clamp"}
{"target": "Anoctamin-1 (ANO1, Homo sapiens, UniProt Q5XXA6, del476-501)", "conditions": "membrane voltage 40 mV, added: 300 nM Ca2+", "IC50": "19.6 µM"}
{"target": "Anoctamin-1 (ANO1, Homo sapiens, UniProt Q5XXA6, del476-501/E650A)", "conditions": "membrane voltage 100 mV", "IC50": "21.5 µM"}
{"target": "Anoctamin-1 (ANO1, Homo sapiens, UniProt Q5XXA6, del476-501/F803A)", "conditions": "membrane voltage 80 mV", "IC50": "19.4 µM"}
{"target": "Anoctamin-1 (ANO1, Homo sapiens, UniProt Q5XXA6, del476-501/K629I)", "test": "inhibitor", "conditions": "20 mV holding voltage", "IC50": "319 µM"}
{"target": "Anoctamin-1 (ANO1, Homo sapiens, UniProt Q5XXA6, del476-501/K629D)", "test": "inhibitor", "conditions": "80 mV holding voltage", "IC50": "264 µM"}
{"target": "Anoctamin-1 (ANO1, Homo sapiens, UniProt Q5XXA6, del476-501/R541K)", "test": "inhibitor", "conditions": "R515K mutant at -100 mV", "IC50": "26.5 µM"}
{"target": "Anoctamin-1 (ANO1, Homo sapiens, UniProt Q5XXA6, del476-501/M544T)", "test": "inhibitor", "conditions": "80 mV holding voltage", "IC50": "28 µM"}
{"data": "Study 3", "cell line": "mouse MPNST tumor cells", "method": "high-content immunofluorescence imaging", "refers to": "nuclear SOX9", "tested at": "10 µM", "time": "12 h", "notes": "mean of 2 replicates", "relative to": "DMSO control", "reading": "higher = more nuclear SOX9"}
{"SMILES": "c1ccc(-c2n[nH]c3c2oc2ccccc23)cc1", "nuclear SOX9 intensity": "75.5 % of DMSO"}
{"SMILES": "N#Cc1cc(NC(=O)C(=O)O)c(Cl)c(NC(=O)C(=O)O)c1", "nuclear SOX9 intensity": "89.5 % of DMSO"}
{"SMILES": "Cc1cc(-c2ccc(CC(=O)Nc3ccc(-c4cccnc4)cc3)cc2)ccn1", "nuclear SOX9 intensity": "159 % of DMSO"}
{"SMILES": "CCn1cc(C(=O)O)c(=O)c2cnc(N3CCCC3)nc21", "nuclear SOX9 intensity": "80.7 % of DMSO"}
{"SMILES": "CC[C@@H]([C@H](C)O)n1ncn(-c2ccc(N3CCN(c4ccc(OC[C@@H]5CO[C@@](Cn6cncn6)(c6ccc(F)cc6F)C5)cc4)CC3)cc2)c1=O", "nuclear SOX9 intensity": "212 % of DMSO"}
{"SMILES": "CC1(C)C(=O)C(C)(C)c2cc(C(=O)Nc3ccc(C(=O)O)cc3)ccc21", "nuclear SOX9 intensity": "122 % of DMSO"}
{"SMILES": "CC(C)(C)c1cc(C(=O)C=Cc2ccc(C(=O)O)cc2)cc(C(C)(C)C)c1", "nuclear SOX9 intensity": "96.8 % of DMSO"}
{"SMILES": "COc1ccc(CN(CCN(C)C)c2ccccn2)cc1", "nuclear SOX9 intensity": "110 % of DMSO"}
{"SMILES": "O=C(NCc1ccco1)c1ccc2c(c1)N(Cc1c(F)cccc1Cl)C(=O)CS2", "nuclear SOX9 intensity": "88.5 % of DMSO"}
{"SMILES": "CCCCC1CCC(c2nc(-c3ccncc3)no2)CC1 (stereo not drawn)", "nuclear SOX9 intensity": "100 % of DMSO"}
{"SMILES": "O=c1cc(CN2CCOCC2)occ1OCCCCCSc1ccnc2cc(C(F)(F)F)ccc12", "nuclear SOX9 intensity": "118 % of DMSO"}
{"data": "Study 4", "species": "mouse", "sample": "microsomes or S9", "tested at": "2 µM", "time": "0.5 h"}
{"SMILES": "CC(C)CN/C(=N/S(=O)(=O)c1ccccc1)c1ccccc1", "remaining compound": "5.18%"}
{"SMILES": "CCCN(Cc1nnc(-c2ccco2)o1)C(=O)COc1c(Cl)cc(Cl)c2ccc(C)nc12", "remaining compound": "83.8%"}
{"SMILES": "Cc1ccc(C(C)C)c(OCCNC(=O)CCCCNS(=O)(=O)c2ccccc2)c1", "remaining compound": "0.634%"}
{"SMILES": "O=c1oc2ncn(-c3ccccc3)c2c2ccccc12", "remaining compound": "1.15%"}
{"SMILES": "CCOc1cc(=O)n2c(c1C(=O)N1CCN(C3CCCCC3)CC1)CCCCC2", "remaining compound": "21.2%"}
{"SMILES": "Cc1ccc2oc(=O)c(/C=C(\\O)CC(C)C)nc2c1", "remaining compound": "80.2%"}
{"SMILES": "CNC(=O)c1cc2c(F)c(O)ccc2n1-c1cc(F)c(O)c(F)c1", "remaining compound": "73%"}
{"SMILES": "CO[C@@H]1CCOC[C@H]1NS(=O)(=O)c1c(Cl)nc2sccn12", "remaining compound": "18.7%"}
{"SMILES": "Cc1n[nH]c(C)c1C12CC3CC(CC(CC(=O)O)(C3)C1)C2", "remaining compound": "62.2%"}
{"SMILES": "Cc1[nH]ncc1CCCNCc1cnc2c(c1)c(C#N)cn2C(C)(C)C", "remaining compound": "22.2%"}
{"SMILES": "COc1cc(=O)n(C)cc1C(=O)Nc1cc(C)on1", "remaining compound": "33.3%"}
{"SMILES": "Cc1cc2cc(CN(Cc3cccs3)S(=O)(=O)c3ccc(F)cc3)c(=O)[nH]c2cc1C", "remaining compound": "7.58%"}
